Published values gathered from unrelated publications.
Protocols differ between the studies behind these lines.
Chain of UniProt Q86Z02 (whole entry, looked up): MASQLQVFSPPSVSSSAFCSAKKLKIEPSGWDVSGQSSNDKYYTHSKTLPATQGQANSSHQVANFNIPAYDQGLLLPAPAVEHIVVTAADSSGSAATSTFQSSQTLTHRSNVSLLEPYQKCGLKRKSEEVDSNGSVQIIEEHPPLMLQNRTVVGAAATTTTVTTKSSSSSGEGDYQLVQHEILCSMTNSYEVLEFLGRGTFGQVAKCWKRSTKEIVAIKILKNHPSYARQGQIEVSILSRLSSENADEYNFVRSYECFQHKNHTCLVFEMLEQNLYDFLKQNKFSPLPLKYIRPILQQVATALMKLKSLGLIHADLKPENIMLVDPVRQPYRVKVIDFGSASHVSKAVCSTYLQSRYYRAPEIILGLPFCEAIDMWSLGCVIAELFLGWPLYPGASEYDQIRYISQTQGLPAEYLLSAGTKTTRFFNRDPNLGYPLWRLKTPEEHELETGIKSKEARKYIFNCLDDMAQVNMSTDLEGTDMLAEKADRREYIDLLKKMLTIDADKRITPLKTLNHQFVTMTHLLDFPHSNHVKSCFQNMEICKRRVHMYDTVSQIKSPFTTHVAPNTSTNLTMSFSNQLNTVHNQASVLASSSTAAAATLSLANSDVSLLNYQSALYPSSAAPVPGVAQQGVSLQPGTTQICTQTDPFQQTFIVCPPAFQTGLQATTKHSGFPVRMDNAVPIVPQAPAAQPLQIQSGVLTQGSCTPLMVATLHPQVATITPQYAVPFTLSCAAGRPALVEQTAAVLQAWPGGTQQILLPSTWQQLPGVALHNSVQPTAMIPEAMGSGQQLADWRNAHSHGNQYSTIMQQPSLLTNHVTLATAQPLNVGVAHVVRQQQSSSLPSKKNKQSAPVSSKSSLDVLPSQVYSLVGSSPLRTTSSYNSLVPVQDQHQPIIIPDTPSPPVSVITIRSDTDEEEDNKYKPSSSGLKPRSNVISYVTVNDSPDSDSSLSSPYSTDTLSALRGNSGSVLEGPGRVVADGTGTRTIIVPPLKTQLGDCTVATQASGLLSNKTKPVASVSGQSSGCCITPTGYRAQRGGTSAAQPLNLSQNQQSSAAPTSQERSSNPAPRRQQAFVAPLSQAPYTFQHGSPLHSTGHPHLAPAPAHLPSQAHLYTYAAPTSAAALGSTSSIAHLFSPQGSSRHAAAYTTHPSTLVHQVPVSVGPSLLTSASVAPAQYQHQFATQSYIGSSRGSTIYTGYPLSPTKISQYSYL
Chain of UniProt P32239 (whole entry, looked up): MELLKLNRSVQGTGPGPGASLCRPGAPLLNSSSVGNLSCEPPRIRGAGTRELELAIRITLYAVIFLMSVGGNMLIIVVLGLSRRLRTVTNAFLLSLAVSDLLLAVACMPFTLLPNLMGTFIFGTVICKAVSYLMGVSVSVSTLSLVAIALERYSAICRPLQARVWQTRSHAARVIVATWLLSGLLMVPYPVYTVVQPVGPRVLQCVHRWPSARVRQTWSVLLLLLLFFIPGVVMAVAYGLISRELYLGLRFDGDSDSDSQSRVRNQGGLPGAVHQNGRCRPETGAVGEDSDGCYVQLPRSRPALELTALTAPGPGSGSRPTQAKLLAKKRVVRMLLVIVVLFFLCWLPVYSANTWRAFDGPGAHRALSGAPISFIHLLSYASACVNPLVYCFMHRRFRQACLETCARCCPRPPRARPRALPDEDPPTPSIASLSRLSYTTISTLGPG
Chain of UniProt P15823 (whole entry, looked up): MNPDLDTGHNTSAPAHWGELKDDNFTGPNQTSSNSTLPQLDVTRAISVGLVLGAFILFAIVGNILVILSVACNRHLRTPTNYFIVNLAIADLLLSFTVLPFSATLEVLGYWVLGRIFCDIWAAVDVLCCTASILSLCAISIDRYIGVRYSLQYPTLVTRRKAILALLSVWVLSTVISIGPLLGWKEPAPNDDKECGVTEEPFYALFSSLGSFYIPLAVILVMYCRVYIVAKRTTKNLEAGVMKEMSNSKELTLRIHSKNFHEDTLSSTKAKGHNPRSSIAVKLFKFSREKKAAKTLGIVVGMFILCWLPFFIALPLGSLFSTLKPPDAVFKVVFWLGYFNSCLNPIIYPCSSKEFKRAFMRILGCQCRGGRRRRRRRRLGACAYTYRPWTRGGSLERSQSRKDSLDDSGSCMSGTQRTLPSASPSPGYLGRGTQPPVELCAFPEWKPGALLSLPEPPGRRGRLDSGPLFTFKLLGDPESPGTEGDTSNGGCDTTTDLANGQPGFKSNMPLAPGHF
Chain of UniProt P35414 (whole entry, looked up): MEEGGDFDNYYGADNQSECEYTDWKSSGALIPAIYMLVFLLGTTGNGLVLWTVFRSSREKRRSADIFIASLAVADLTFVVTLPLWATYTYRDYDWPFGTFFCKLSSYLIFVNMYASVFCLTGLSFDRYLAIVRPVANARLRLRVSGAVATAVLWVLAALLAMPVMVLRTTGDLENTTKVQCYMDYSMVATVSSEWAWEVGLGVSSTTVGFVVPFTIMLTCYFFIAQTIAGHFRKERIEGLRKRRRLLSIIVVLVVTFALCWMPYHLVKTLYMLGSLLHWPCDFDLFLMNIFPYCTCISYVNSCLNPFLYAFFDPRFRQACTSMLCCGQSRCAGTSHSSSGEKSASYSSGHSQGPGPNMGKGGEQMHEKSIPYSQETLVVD
Chain of UniProt P19784 (whole entry, looked up): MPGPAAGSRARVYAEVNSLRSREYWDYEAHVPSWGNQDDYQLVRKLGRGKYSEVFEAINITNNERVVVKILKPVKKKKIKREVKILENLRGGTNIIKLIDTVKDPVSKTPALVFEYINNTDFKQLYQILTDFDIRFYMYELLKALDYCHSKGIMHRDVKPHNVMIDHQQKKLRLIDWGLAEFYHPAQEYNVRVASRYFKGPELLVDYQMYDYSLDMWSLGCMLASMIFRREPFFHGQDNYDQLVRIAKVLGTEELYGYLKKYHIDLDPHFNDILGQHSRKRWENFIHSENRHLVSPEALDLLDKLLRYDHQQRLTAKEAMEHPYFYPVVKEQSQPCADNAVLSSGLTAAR
Chain of UniProt O75116 (whole entry, looked up): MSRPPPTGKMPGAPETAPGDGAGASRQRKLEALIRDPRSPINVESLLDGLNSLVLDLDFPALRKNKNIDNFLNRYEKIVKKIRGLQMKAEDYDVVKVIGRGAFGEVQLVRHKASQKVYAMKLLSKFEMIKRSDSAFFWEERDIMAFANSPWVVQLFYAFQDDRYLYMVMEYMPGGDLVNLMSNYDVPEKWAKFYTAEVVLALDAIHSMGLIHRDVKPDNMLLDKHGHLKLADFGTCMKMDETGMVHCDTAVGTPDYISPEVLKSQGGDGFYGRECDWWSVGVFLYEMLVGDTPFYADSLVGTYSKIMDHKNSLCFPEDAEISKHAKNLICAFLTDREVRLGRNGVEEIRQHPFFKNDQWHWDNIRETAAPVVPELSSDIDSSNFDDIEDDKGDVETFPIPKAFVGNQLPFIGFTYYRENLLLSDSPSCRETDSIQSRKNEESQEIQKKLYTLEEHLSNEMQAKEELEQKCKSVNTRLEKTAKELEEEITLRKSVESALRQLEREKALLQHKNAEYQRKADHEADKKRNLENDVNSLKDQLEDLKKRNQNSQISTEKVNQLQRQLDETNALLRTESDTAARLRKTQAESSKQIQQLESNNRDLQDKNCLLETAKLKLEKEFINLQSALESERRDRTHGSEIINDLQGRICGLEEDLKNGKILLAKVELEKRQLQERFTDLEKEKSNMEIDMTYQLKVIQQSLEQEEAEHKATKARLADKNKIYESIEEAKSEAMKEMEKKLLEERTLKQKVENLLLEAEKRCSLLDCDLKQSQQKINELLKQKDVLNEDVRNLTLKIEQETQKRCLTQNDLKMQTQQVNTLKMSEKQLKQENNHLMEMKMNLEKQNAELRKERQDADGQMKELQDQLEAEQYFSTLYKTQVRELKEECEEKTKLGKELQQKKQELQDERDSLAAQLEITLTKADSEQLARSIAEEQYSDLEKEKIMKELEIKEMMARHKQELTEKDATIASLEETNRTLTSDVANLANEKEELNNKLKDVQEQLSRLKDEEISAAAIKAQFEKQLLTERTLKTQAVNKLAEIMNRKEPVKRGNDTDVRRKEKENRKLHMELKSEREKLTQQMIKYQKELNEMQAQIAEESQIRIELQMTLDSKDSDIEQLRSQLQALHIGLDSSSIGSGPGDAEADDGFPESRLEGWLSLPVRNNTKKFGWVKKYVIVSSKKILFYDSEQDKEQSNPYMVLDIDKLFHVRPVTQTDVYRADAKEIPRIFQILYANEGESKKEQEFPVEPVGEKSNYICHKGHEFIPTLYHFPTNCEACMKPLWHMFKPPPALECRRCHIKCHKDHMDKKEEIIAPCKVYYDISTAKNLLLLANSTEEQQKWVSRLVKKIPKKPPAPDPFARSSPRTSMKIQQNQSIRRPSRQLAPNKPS

The inhibition of `CN(C(=O)n1cnc(-c2ccc[n+]([O-])c2)c1)C1CCCCC1` is reported as 7% (CCKBR (Homo sapiens, UniProt P32239); radioligand binding; 50 µM).
`COc1cc(Nc2ncc(F)c(Nc3ccc4c(n3)NC(=O)C(C)(C)O4)n2)cc(OC)c1OC` gave an inhibition of 65% (HIPK1 (Homo sapiens, UniProt Q86Z02); KINOMEscan; 10 µM).
With `O=C(CCCN1CC=C(n2c(=O)[nH]c3ccccc32)CC1)c1ccc(F)cc1` the IC50 was 10 µM (Plasmodium falciparum; Dd2).
`COc1ccc(N2C(=O)N(c3c(C)cccc3Cl)Cc3cnc(Nc4ccc(C5CCN(C)CC5)cc4OC)nc32)nc1` has an inhibition of -0.45% (ROCK2 (Homo sapiens, UniProt O75116); kinase activity; 0.5 µM).
For `Cc1ncc(C)n2nc(/C=C/c3nc(N4CCCC4)cc(N4CCOCC4)n3)nc12`, the inhibition was 20% (GABA-gated chloride channel; radioligand binding; 10 µM).
With `O=C(Nc1cnccc1Cl)N1CCN(Cc2ccc3c(c2)OC(F)(F)O3)CC1` the inhibition was 3% (Adra1b (Rattus norvegicus, UniProt P15823); binding; 50 µM, with: [3H]prazosin).
With `CN1CCN(c2cc(-c3ccncc3)c(-c3ccc4ccccc4c3)nn2)CC1` the inhibition was -5.5% (Apelin receptor (APLNR, Homo sapiens, UniProt P35414); antagonist, FLIPR; 10 µM).
The IC50 of `CC[N+](CC)(CC)CCOc1ccc(/C=C/c2ccccc2)cc1` is reported as 0.501 µM (Plasmodium falciparum; D10).
The inhibition of `CN(CCN1CCC(OC(=O)Nc2ccccc2-c2ccccc2)CC1)C(=O)c1ccc(CN2CCC(C(N)=O)CC2)cc1` is reported as 3% (phosphodiesterase I; enzyme activity; 1 µM).
The inhibition of `COCc1c(-c2cc3cc(C)cc(OC)c3s2)c2c(N)ncnn2c1CN1CCNC(=O)C1` is reported as 27% (PGR (Homo sapiens, UniProt P06401); binding, radioligand binding; 10 µM).
The inhibition of `FC(F)(F)c1cccc(Nc2nc(NCCOc3ccccc3)nc3[nH]cnc23)c1` is reported as 6% (CSNK2A2 (Homo sapiens, UniProt P19784); enzyme activity, inhibitor, Thermo Fisher kinase screening; 5 µM).
